Results of several laboratories.
Each line is one published result; not all experiments were run side by side.
BTK R28H: Tyrosine-protein kinase BTK (BTK, Homo sapiens, UniProt Q06187, R28H)
UniProt Q06187, sequence (whole entry, unmodified, looked up): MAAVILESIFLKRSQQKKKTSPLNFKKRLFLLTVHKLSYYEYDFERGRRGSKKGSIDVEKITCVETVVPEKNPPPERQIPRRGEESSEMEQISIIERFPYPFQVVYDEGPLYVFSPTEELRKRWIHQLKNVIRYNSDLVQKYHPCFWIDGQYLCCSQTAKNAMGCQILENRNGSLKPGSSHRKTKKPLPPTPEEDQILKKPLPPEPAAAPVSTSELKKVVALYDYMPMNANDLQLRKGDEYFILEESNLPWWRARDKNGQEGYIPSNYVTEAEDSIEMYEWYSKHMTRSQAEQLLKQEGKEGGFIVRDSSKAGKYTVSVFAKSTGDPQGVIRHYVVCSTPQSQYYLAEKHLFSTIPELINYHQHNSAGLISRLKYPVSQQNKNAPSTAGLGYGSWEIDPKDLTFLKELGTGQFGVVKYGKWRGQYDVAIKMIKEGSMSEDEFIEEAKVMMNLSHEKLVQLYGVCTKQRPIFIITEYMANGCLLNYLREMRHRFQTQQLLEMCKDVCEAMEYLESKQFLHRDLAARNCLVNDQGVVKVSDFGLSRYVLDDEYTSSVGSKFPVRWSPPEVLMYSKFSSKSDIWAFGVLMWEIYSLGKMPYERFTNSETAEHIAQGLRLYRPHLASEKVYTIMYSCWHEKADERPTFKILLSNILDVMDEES
BTK: Tyrosine-protein kinase BTK (BTK, Homo sapiens, UniProt Q06187)

O=C1NC(=O)c2c1c1cc(F)c[n+]3c1c1c2c2cc(O)ccc2[n]1[Ru-4]312([N]=C=S)[S+]3CC[S+]1CC[S+]2CC3 (stereo not drawn) — remaining activity (BTK R28H; enzyme activity; 100 nM, human enzyme, added: 10 µM ATP; reference: untreated): 111%
CS(C)(=O)=Nc1ccc(-c2ccc(-c3nc4cc(O[C@@H]5CO[C@H]6[C@@H]5OC[C@H]6O)[nH]c4cc3F)cc2)cc1 — inhibition (BTK R28H; enzyme activity, inhibitor; 10 µM): 1%
O=C(CN1CN(c2ccccc2)C2(CCN(C(=O)c3cnc4[nH]ncc4c3)CC2)C1=O)NCC(F)(F)F — inhibition (BTK; inhibitor; concentration not given): < 50%
Nc1ccc(/C=C/C(=O)N2CCc3c(oc4c(-c5ccc(F)cc5)cc(-c5ccc(C(=O)N6CCC(F)(F)CC6)cn5)cc34)C2)cn1 — remaining binding (BTK; binding, competition with immobilised ligand; 1 µM): 100%
N[C@H](C(=O)N1CCCC1)C1CCN(c2nccc3c(-c4ncc(Cl)cc4Cl)cccc23)CC1 — inhibition (BTK; kinase activity, inhibitor; 10 µM, added: ATP 1 mM): 0.2%
CN(C)[C@H]1C[C@@]23CC[C@@]4(O2)C(=CC[C@]2(C)[C@@H](c5ccc6ccncc6c5)CC[C@H]24)C=C3[C@@H](O)[C@@H]1O — inhibition (BTK; ATP probe labelling, inhibitor, KiNativ profiling; 0.1 µM): -4.2%
C[C@H](NCc1ccc(-c2ccc(C(F)(F)F)cc2)cc1)C(N)=O — inhibition (BTK; cell-free assay, competition with immobilised ligand; 1 µM): 5%
CC(C)[C@H]1NC(=O)C[C@H]2/C=C/CCSSC[C@@H](NC1=O)C(=O)N[C@H](Cc1cccc3ccccc13)C(=O)NCC(=O)O2 — inhibition (BTK; enzyme activity, inhibitor; 10 µM): -10.8%
CCOC(=O)[C@@H]1Cc2c(cc([N+](=O)[O-])cc2[N+](=O)[O-])[C@H](O)[C@]12C(=O)Nc1ccc(Br)cc12 — remaining binding (BTK; KINOMEscan; 100 nM; reference: DMSO control): 74%

Excerpt of the above:
O=C(CN1CN(c2ccccc2)C2(CCN(C(=O)c3cnc4[nH]ncc4c3)CC2)C1=O)NCC(F)(F)F — inhibition (BTK; inhibitor; concentration not given): < 50%
